Assay results from different studies.
Parts stem from different laboratories: compare values within a part only. Positions count from the first letter of the parent shown.

Series 1 — target: NFIL3, bZIP domain (human); technique: DHFR protein complementation; medium: yeast; reference: wild-type JUN-FOS pair; reading: higher = stronger binding; endpoint: binding fitness
Notes: single substitutions, most at no-binding floor
Starting sequence: JUN, bZIP domain (human); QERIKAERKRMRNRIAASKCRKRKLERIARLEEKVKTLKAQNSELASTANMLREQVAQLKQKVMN; partner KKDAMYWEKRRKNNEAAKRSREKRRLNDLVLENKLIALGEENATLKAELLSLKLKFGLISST
S47Q: -1.38 natural log
L38A: -1.37 natural log
L45Y: -1.49 natural log
A29V: -1.35 natural log
S47M: -1.5 natural log
N42P: -1.43 natural log
I28D: -1.51 natural log
S47T: -1.35 natural log
A57N: -1.29 natural log
N42W: -1.44 natural log
E33A: -1.55 natural log
R53H: -1.47 natural log
Q41Y: -1.48 natural log

Series 2 — target: CCNA2, cyclin fold, Cln2 fusion (human); technique: yeast growth competition, sequencing; medium: yeast; notes: strong parent motif; reference: not given; reading: higher = stronger binding; endpoint: normalised enrichment score
Starting sequence: NPAT docking peptide (human); PCHRRVLCFDSTT; partner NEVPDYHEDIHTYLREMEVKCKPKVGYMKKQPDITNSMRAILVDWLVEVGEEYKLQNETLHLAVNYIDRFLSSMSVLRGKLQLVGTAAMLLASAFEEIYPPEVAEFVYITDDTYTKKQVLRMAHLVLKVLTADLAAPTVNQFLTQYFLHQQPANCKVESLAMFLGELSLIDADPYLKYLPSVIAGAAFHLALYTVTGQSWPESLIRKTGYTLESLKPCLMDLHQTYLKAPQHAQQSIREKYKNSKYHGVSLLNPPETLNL
PCHRKVLCFDSTT [R5K]: 0.849
PCHRAVACFDSTT [R5A L7A]: 0.112
PCHRRVLCFDATT [S11A]: 1.14
PCHRRVLCFASTT [D10A]: 1.22
PCHRAVLCFDSTT [R5A]: 0.386
PCHRRVLCLDSTT [F9L]: 0.186
PAHRRVLCFDSTT [C2A]: 1.61
PCARRVLCFDSTT [H3A]: 4.81
PCHRRVACFDSTT [L7A]: 0.136
PCHARVLCFDSTT [R4A]: 0.504

Series 3 — technique: DHFR PCA, deep sequencing; medium: yeast; with: (+)-ABA 0 µM; reference: wild-type fitted maximum; reading: higher = stronger binding; endpoint: relative binding score
Target: ABI1, truncated, D143A, DHFR fusion (Arabidopsis thaliana)
Notes: methotrexate growth selection, single substitutions
Starting sequence: PYL1, truncated, DHFR fusion (Arabidopsis thaliana); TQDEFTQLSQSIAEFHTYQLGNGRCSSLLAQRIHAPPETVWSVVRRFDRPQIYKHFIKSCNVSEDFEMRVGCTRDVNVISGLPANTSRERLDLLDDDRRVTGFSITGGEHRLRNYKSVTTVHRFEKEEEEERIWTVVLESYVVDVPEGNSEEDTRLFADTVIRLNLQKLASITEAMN
G81N: 26%
F5V: 20.3%
L93T: 1.12%
H110L: 15.1%
I79T: 18.9%
S59V: 1.67%
F47R: -3.85%
D96K: 1.75%
H122C: -3.31%
S80M: 40.4%
Y18I: 5.45%
E64F: 0.188%
R132Y: -5.84%
K116G: 10.6%
P37H: 0.138%
C25K: -0.134%
S42R: 10.3%
R49F: 1.93%

Series 4 — technique: RNA Bind-n-Seq; molecule type: RNA; medium: in vitro; concentration: 100 nM; reference: input RNA pool; reading: higher = stronger binding; endpoint: bound/input enrichment
Target: RING finger protein unkempt homolog, zinc fingers 1-6, SBP tag (UNK, Homo sapiens, UniProt Q9C0B0, residues 30-357)
UniProt Q9C0B0, sequence (30-357, looked up): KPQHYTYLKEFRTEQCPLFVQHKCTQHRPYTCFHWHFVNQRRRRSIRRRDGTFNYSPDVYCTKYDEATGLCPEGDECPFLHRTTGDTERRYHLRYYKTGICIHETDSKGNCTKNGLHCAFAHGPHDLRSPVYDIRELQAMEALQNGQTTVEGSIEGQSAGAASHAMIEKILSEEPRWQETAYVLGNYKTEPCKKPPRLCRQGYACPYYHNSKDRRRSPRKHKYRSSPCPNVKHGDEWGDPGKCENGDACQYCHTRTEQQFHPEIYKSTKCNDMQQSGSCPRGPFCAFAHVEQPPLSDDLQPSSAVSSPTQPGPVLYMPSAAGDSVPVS
Notes: RNA with constant flanks, vertebrate orthologous sites, ends assumed
Constant ends, left off below: GGGAGUUCUACAGUCCGACGAUC … CAACAGAGGAUUGAGCAUCA
ACUUUUUACCUUUUUUAUCACCUCAGUGAGGUAACGUCUCCCUUGGCAUUUAGCUGGUACUGGAGCUAGUCAUUCCUAAUAAGUUUUUUUACAUUGCAUUUCUUUCACACUCAUUAUCAU: 2.34 ratio
CAAUUCGAUGGUCGAAGGCUCGGAACUCAAGAAGGUCCGCUCCAACUCUAGAAUUUACCACCGGUAUUUUCUCUUAGAUGCCGACAUGCAGUCCCUGCGAUGGGAGCCAUCCAAGAAGGA: 0.146 ratio
ACCAAGGGACACCCAGCAGGGCGAGGAGCCAGCCCAGCCAGCAGAGGUGGGGCGGGAUCGCUGCCAUCCGGGCUGCACUCACUGCUCUCUGCACCCCUCUGGUGCAAAACCAGCUGCCUU: 0.509 ratio
UAUCUUCAGGAUGAAGCUCUUACAUCAGGUAUCACGAGUCUGGAGAAUAGAUGGGUUGACUAGUUGUAUUUACAAAUUACUCUCUGUGGAUUAUAAUCCUUUGUAUACCAACAUCACAGU: 0.265 ratio
UGCCCGUUUACCCCUAAAAUAGAACUUUUUUUAGAAUUAUAUUACCACUUCUAAAAACCUUAGCAAUAUUAGAAUAACACAUCAAUGAAAUAAAUUUUCCUCAUUGUUUUUGCAAACCAA: 4.82 ratio
GUGGGGAUGAGGGUGGGAUGGGAAAGGGAUGUAUGGAUGUUACUGGCAUUUUUAAGUGUUUUAGAGUUUUUUGGGGUUUGGGGUGGUUUUUUUUCCUUGUUUUCCUUUUUUCCUUUUAAU: 2.34 ratio
GGGAGGCCGGUGGGGGAAUCCCCUGCCUUGGCCUUGCAUCCCCUUCCUGCCACGUGCCCCUAGUUAUUUUUUUUUUUUUACCACCAUGUGAUUAAGGUCGGCGCUGCCUCCCCCGACCCA: 6.24 ratio
GCAAUGAAAAGACAGCCCUCCUCCCAGCCCCCACCUCACUAGGAGACACGAACGUUACCGUAGAAGAGCAAUUUAACUCAAUAAAUUUAUCUUUUCAGGAUGAUCCAGACUCCAGUCCCA: 0.75 ratio

Series 5 — technique: protein-binding microarray; molecule type: double-stranded DNA, one strand shown; medium: in vitro; concentration: not given; reading: higher = stronger binding; endpoint: E-score
Target: Hepatocyte nuclear factor 3-beta, forkhead domain (FOXA2, Homo sapiens, UniProt Q9Y261, residues 142-269)
Notes: k-mer, scored over probes, only values ≥0.25
Construct (chain): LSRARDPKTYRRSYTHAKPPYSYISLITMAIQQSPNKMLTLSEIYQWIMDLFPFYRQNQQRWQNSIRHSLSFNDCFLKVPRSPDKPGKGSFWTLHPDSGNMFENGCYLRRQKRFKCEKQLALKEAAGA
TAAAAACA: 0.276
CATACAAC: 0.313
ACTTTACT: 0.261
AGACATTA: 0.275
CATGATCA: 0.256
GGTTAGTA: 0.27
ATCATGAT: 0.344
TAGGATAA: 0.282
TACACCTA: 0.288
CTACAAAC: 0.285
CATAAACA: 0.294
TGTAGACA: 0.325
GATGTTTA: 0.322
GTACAAAA: 0.27
AATACCAT: 0.269

Excerpt of the above (series 2):
PCHRKVLCFDSTT [R5K]: 0.849
PCHRAVACFDSTT [R5A L7A]: 0.112
PCHRRVLCFDATT [S11A]: 1.14
PCHRRVLCFASTT [D10A]: 1.22
PCHRAVLCFDSTT [R5A]: 0.386
PCHRRVLCLDSTT [F9L]: 0.186
PAHRRVLCFDSTT [C2A]: 1.61
